Measurements gathered from unrelated publications.
A part holds a random share of what one study measured. Changes are numbered by the printed parent chain.

Block 1
Target: CCNA2, cyclin fold, Cln2 fusion (human)
Technique: yeast growth competition, sequencing
Medium: yeast
Setting: weak parent motif
Baseline: not given
Direction: higher = stronger binding
Parent: WEE2 docking peptide (human); KELRQKLNFSYCE
Under “normalised enrichment score”, `K1A` is recorded as 0.518.
`Q5A`: “normalised enrichment score” 0.681.
For `R4A`, “normalised enrichment score” read -0.2.
Under “normalised enrichment score”, `L7A` is recorded as 0.287.
`K6A` — result for “normalised enrichment score”: 0.365.
`L3A` — result for “normalised enrichment score”: 2.91.

Block 2
Target: Prothrombin, mature alpha-thrombin (F2, Homo sapiens, UniProt P00734)
Technique: aptamer microarray, sandwich
Molecule type: DNA with 2'F-ANA
Medium: in vitro
Concentration: 200 nM
Setting: whole 15-mer aptamer, many near background
Together with: Cy3 exosite-II aptamer, 400 nM
Direction: higher = stronger binding
Oligonucleotide: GGTTGGTGTGGTTGG
For `2'F-ANA at 4 11 12 14 15`, “mean fluorescence intensity” read 119 a.u.
Under “mean fluorescence intensity”, `2'F-ANA at 1 3 4 5 8 9 11 13 15` is recorded as 48.8 a.u.
For `2'F-ANA at 3 8 9 12 13 14 15`, “mean fluorescence intensity” read 587 a.u.
`2'F-ANA at 2 6 8 9 10 12 13 14 15` — result for “mean fluorescence intensity”: 79.5 a.u.
Under “mean fluorescence intensity”, `2'F-ANA at 3 6 9 11 14 15` is recorded as 504 a.u.
For `2'F-ANA at 1 2 4 6 7 8 9 10 11 12 13 14`, “mean fluorescence intensity” read 57.5 a.u.
`2'F-ANA at 1 3 4 6 7 9 11 14 15`: “mean fluorescence intensity” 83.9 a.u.
`2'F-ANA at 2 3 4 6 7 10 11 12 14`: “mean fluorescence intensity” 159 a.u.
`2'F-ANA at 8` — result for “mean fluorescence intensity”: 735 a.u.
Under “mean fluorescence intensity”, `2'F-ANA at 2 3 5 6 7 12 13 15` is recorded as 130 a.u.
For `2'F-ANA at 2 5 6 7 8 9 11 13 14 15`, “mean fluorescence intensity” read 50.5 a.u.
`2'F-ANA at 2 3 4 5 9 13 14` — result for “mean fluorescence intensity”: 50.1 a.u.
For `2'F-ANA at 3 4 5 7 9 13 14 15`, “mean fluorescence intensity” read 198 a.u.
Under “mean fluorescence intensity”, `2'F-ANA at 1 3 4 6 8 11 13 15` is recorded as 147 a.u.
Under “mean fluorescence intensity”, `2'F-ANA at 3 5 6 10 11 12 15` is recorded as 58.1 a.u.
Under “mean fluorescence intensity”, `2'F-ANA at 2 3 4 5 6 7 9 10 12 13 14 15` is recorded as 62.5 a.u.
Under “mean fluorescence intensity”, `2'F-ANA at 1 3 4 5 6 9 11 12` is recorded as 83.7 a.u.
For `2'F-ANA at 1 5 6 7 8 9 11 12 13`, “mean fluorescence intensity” read 72.8 a.u.
`2'F-ANA at 2 4 5 6 9 10 11 14`: “mean fluorescence intensity” 50.3 a.u.
For `2'F-ANA at 1 2 4 9 10 11 15`, “mean fluorescence intensity” read 54.8 a.u.
For `2'F-ANA at 2 3 4 6 12 14 15`, “mean fluorescence intensity” read 298 a.u.
Under “mean fluorescence intensity”, `2'F-ANA at 1 5 6 9 11 12 13` is recorded as 66 a.u.
`2'F-ANA at 1 3 4 7 9 12 13 14 15` — result for “mean fluorescence intensity”: 67.9 a.u.
For `2'F-ANA at 1 4 5 6 9 10 11 12`, “mean fluorescence intensity” read 50.6 a.u.

Block 3
Target: Sal-like protein 4, full length isoform A (SALL4, Homo sapiens, UniProt Q9UJQ4, residues 1-1053)
Chain of UniProt Q9UJQ4 (whole entry, looked up): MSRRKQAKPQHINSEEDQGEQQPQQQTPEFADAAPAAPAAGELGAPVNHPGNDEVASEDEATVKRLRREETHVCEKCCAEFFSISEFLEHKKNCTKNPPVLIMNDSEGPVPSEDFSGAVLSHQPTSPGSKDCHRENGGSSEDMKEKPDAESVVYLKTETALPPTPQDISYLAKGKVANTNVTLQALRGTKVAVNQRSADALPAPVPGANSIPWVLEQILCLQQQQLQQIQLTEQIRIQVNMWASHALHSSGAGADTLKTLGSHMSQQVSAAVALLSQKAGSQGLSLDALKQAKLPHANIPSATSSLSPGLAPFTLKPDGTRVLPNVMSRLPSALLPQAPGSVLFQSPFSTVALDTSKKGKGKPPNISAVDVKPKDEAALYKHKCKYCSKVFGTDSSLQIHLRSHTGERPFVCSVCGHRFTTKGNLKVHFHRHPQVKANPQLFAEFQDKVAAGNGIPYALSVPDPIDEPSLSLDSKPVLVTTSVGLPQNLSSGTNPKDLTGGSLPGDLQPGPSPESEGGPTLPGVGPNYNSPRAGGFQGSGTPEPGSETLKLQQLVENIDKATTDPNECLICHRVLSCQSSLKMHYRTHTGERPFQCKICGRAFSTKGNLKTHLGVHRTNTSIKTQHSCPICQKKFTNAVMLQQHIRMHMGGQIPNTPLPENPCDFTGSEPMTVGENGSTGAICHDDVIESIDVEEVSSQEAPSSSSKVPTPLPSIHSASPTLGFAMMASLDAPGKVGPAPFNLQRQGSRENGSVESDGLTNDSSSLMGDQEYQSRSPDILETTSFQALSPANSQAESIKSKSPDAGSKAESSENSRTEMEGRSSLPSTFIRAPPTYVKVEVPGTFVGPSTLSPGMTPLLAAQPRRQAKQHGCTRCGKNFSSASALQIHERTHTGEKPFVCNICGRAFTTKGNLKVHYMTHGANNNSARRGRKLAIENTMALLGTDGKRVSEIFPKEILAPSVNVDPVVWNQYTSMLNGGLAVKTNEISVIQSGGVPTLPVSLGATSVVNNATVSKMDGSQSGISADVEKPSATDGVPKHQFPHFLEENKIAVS
Technique: universal PBM
Molecule type: double-stranded DNA, one strand shown
Medium: in vitro
Concentration: 600 nM
Setting: 8-mer, flanks averaged, mean of replicates
Direction: higher = stronger binding
With `GTTGTTAA` the E-score was 0.246.
`AGCCCCCG` gave an E-score of -0.423.
With `AATTATCC` the E-score was 0.232.
`AGGATTGG` gave an E-score of -0.00958.
For `TCCCAGCA`, the E-score was -0.139.
For `AGTTTACG`, the E-score was 0.0898.
`CTAAGTCC` has an E-score of -0.145.
`CGTAGCAA` has an E-score of 0.0525.
`AGACCATG` gave an E-score of -0.22.
`TGAACTAA` has an E-score of 0.167.
With `CCTGTCGA` the E-score was -0.11.
For `ATCGTGTG`, the E-score was 0.138.
`AACCGATG` gave an E-score of -0.139.
With `ACCCCCCT` the E-score was -0.407.
`AACCATAA` has an E-score of 0.336.
`CCTATGGC` gave an E-score of -0.0583.
With `AAATTATC` the E-score was 0.426.

Block 4
Target: MAFK, bZIP domain (human)
Technique: DHFR protein complementation
Medium: yeast
Setting: single substitutions, most at no-binding floor
Baseline: wild-type JUN-FOS pair
Direction: higher = stronger binding
Parent: JUN, bZIP domain (human); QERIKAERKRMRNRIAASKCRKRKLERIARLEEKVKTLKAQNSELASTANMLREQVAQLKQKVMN; partner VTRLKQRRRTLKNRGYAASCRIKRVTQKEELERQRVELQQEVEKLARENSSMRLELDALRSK
`N42C` gave a binding fitness of -1.31 natural log.
With `N42F` the binding fitness was -1.45 natural log.
`A57M` gave a binding fitness of -1.55 natural log.
`L45A` gave a binding fitness of -1.42 natural log.
For `M51K`, the binding fitness was -1.48 natural log.
With `Q41L` the binding fitness was -1.53 natural log.
`M51G` has a binding fitness of -1.45 natural log.
With `L52F` the binding fitness was -1.32 natural log.
The binding fitness of `S47E` is reported as -1.13 natural log.
`Q41T` gave a binding fitness of -1.47 natural log.
`V35N` has a binding fitness of -1.55 natural log.
`K39L` gave a binding fitness of -1.52 natural log.
For `K34G`, the binding fitness was -1.48 natural log.
`V35I` has a binding fitness of -1.5 natural log.
For `E32R`, the binding fitness was -1.44 natural log.
The binding fitness of `L45T` is reported as -1.49 natural log.
For `E32W`, the binding fitness was -1.49 natural log.
For `E32D`, the binding fitness was -1.56 natural log.
With `M51I` the binding fitness was -1.51 natural log.
`V56Y` has a binding fitness of -1.46 natural log.
`K39C` has a binding fitness of -1.45 natural log.
`R53N` has a binding fitness of -1.52 natural log.
`Q41P` gave a binding fitness of -1.55 natural log.
`E54N` gave a binding fitness of -1.45 natural log.
The binding fitness of `S43F` is reported as -1.53 natural log.

Block 5
Target: RNA binding protein fox-1 homolog 2, RRM domain, GST-SBP tag (RBFOX2, Homo sapiens, UniProt O43251-10, residues 100-194)
Technique: RNA Bind-n-Seq
Molecule type: RNA
Medium: in vitro
Concentration: 365 nM
Setting: natural RNA segment, single round, ends assumed
Baseline: no-protein control
Direction: higher = stronger binding
Residues (chain): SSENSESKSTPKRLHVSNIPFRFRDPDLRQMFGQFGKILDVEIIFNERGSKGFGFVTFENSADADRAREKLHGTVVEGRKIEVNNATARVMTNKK
`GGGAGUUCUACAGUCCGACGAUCUCUGCUCUAGACUGUGAAAUCAGCAUGUAUGUGAAAAAUCCCAGUCCUUGACCAUGUCUCCCACUCCACCUGCAAGUGAUUGCUGCCAUCUGUCCUGGGUGGGAUGCACCUGGAAUUCUCGGGUGCCAA`: “RBNS enrichment (R)” 12.3.
`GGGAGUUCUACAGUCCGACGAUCUUCGAUCGCUGUGCCUCCGAGGGCGCUUCUAGCUCAUCGUAGAUUUGUGAUGUCAUAGUGCAAACUGCAGUGACCGGUAAAAUGACCUGACAUGUAACCGUUUUCAGGGAUGGAAUUCUCGGGUGCCAA` — result for “RBNS enrichment (R)”: 0.231.
Under “RBNS enrichment (R)”, `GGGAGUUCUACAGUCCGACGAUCAACCGUGACGUCCAAGGAACCAAACCCAGACGCAGAACAAUAAAAUAAAUUCCGUACUCCCCACCCAGGUCCUGCGUGGCGAUGUGUGUCUGGGGCCCUGGGGAAAUAGUUGGAAUUCUCGGGUGCCAA` is recorded as 0.492.
`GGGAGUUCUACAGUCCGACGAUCAACUAAACAAGUUUGUGUUUUUUAAACCUUGGGCAUUUCAGAGAAAGAGCUGGUCUGGAGUGUCUCCUCACAGUGACCUCUGAGGCCUCAGAAUAGCCUGCCUAAUAAGAUGGAAUUCUCGGGUGCCAA` — result for “RBNS enrichment (R)”: 0.542.
`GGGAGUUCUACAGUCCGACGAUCUGUAAAAAGAUUCCCAAACGUGGUUACAUUAGCCAUUCAUGUAUGUCAGAAGUGCAGAAUUGGGGCACUUAAUGGUCACCUUGUAACAGUUUUGUGUAACUCCCAGUGAUUGGAAUUCUCGGGUGCCAA` — result for “RBNS enrichment (R)”: 1.29.
For `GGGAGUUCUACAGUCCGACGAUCAGAGAUGGGGUUUCACCGUGCUGGCCAGGCUGGUCUAGAACUCCUGACUGCAAAUGAUCAGCCCGCCUCAGCCACCCAAAGUGUUGGGAUUACAGGUGUGAGCCACUGUGUGGAAUUCUCGGGUGCCAA`, “RBNS enrichment (R)” read 0.454.
`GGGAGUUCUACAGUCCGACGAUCCUCCUUGCAUUUCCCCAUGCUCCCCACCCCCUGGCAAAAGGCUGGCCAUGCUCUGUUCCCAGCAGCCGCGCAGGUUUCCCCACUGGCUGCAAUGGCCCUACCAAAAGCCAUGGAAUUCUCGGGUGCCAA`: “RBNS enrichment (R)” 1.56.
Under “RBNS enrichment (R)”, `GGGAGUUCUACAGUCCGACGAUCGCUGGGCAGAGCUGACUCCUGCCCCGCUGUCCCUGAUGGAACCUUCCUUCCAGAGCUGUGGAAGAGAUGUUUGUGACCCCUCCCUUGGACUCUUGGGGGCCAAUCCCACUUGGAAUUCUCGGGUGCCAA` is recorded as 0.307.
`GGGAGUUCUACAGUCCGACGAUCACAUAAAUCUAAUCAGAUAUCUUAUGUAGUCCAUCUCUGCUGGCUUUAGUAACUGCUCCUAAACUUUUUAACUCUAAAGGAGCGUGGAAAGCCCGCAUCACAGUGUUCAGUGGAAUUCUCGGGUGCCAA` — result for “RBNS enrichment (R)”: 0.3.
`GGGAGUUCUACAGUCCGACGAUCUGUCUCAGCCUUGUUUUUCUAGAGUUGUGUUUUUCAGUCAUUUCUUCAAGAAAAACUAAAAUGAUUUAGUUGGAGCAAAGCUUUAAGUGUGUUGGUGUGCUUCUGUGUGGUGGAAUUCUCGGGUGCCAA` — result for “RBNS enrichment (R)”: 0.889.
Under “RBNS enrichment (R)”, `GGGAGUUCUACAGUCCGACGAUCACUUCCAUAUUCCAUUCCUUCCUCCUAAGGGACAAUGGAAGUUCUCAGAAGAGUAUCUUCAGUAAGAGGAGAGUAACUUUUUUUUUGCUGCUCCCGCUAUAUCCCAGGCCUGGAAUUCUCGGGUGCCAA` is recorded as 0.249.
`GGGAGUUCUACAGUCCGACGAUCUGCGGUCACCAUGGGUGAGCACUGUCUGUGCACGUGCCAGGGAGGAGAUGGCUGGGACCACUGCACAGGAGGGCGCAGCCUGGCGUCGCCAUGAAAGUUGUCUCUGUGCCUGGAAUUCUCGGGUGCCAA` — result for “RBNS enrichment (R)”: 0.881.

Block 6
Target: ABI1, truncated, D143A, DHFR fusion (Arabidopsis thaliana)
Technique: DHFR PCA, deep sequencing
Medium: yeast
Setting: methotrexate growth selection, single substitutions
Together with: (+)-ABA 200 µM
Baseline: wild-type fitted maximum
Direction: higher = stronger binding
Parent: PYL1, truncated, DHFR fusion (Arabidopsis thaliana); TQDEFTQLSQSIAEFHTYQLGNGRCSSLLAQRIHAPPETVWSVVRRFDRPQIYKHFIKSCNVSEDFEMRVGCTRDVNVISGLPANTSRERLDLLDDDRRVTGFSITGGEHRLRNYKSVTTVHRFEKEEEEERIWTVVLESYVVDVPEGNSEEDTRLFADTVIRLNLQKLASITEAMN; partner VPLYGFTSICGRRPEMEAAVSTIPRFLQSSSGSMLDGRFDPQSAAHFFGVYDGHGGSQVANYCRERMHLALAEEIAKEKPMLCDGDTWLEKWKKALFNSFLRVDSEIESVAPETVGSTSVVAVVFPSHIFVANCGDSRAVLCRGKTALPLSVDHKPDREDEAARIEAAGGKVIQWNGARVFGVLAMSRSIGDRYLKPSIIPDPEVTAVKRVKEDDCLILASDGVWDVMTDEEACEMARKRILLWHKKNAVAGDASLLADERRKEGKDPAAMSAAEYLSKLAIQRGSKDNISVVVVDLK
For `E174F`, “relative binding score” read 64.7%.
`H16D` — result for “relative binding score”: 5.74%.
`S87R`: “relative binding score” 25.2%.
`L82V` — result for “relative binding score”: 94.3%.
For `K58A`, “relative binding score” read 101%.
`P83E`: “relative binding score” 75.2%.
`G102H` — result for “relative binding score”: 1.98%.
For `P50W`, “relative binding score” read 13.3%.
`D159Q`: “relative binding score” 64.3%.
`V78E` — result for “relative binding score”: -2.03%.
For `N165H`, “relative binding score” read 50.3%.
For `R132L`, “relative binding score” read 105%.
`V142M`: “relative binding score” 93.6%.
Under “relative binding score”, `K54V` is recorded as 4.89%.
Under “relative binding score”, `V70Q` is recorded as 94.4%.
Under “relative binding score”, `K126D` is recorded as 106%.
`V78G` — result for “relative binding score”: 11.9%.
Under “relative binding score”, `M176R` is recorded as 103%.
`M176I` — result for “relative binding score”: 97.8%.
For `S42H`, “relative binding score” read 92.4%.
`V143T` — result for “relative binding score”: 93.9%.
